Experimental data of several laboratories.
Each numbered part is a random draw from the data of one study; scales do not carry over between parts.
Chain of UniProt P78368 (whole entry, looked up): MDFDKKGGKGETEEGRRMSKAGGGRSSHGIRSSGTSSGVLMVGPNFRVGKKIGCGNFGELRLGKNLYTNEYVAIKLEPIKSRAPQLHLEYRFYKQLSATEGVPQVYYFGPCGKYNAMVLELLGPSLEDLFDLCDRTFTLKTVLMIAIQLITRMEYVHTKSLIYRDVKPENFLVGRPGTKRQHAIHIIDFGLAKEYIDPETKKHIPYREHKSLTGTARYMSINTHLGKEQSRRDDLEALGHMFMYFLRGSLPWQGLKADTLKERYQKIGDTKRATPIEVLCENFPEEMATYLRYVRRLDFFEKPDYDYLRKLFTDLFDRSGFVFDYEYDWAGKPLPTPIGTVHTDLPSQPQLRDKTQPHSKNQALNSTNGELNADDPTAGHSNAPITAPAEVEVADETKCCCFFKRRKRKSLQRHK
Chain of UniProt Q13882 (whole entry, looked up): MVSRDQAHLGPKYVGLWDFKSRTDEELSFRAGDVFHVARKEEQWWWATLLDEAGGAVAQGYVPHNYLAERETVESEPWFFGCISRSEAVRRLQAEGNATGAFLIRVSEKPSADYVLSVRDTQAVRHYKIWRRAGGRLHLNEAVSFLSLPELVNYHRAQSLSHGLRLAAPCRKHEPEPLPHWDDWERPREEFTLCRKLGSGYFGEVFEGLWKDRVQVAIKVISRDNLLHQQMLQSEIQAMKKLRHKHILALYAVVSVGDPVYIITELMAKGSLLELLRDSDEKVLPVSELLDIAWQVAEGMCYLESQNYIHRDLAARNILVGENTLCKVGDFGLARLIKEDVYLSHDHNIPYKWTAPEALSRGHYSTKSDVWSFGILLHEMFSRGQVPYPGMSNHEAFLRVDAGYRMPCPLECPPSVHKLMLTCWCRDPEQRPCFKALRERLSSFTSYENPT
Chain of UniProt P53667 (whole entry, looked up): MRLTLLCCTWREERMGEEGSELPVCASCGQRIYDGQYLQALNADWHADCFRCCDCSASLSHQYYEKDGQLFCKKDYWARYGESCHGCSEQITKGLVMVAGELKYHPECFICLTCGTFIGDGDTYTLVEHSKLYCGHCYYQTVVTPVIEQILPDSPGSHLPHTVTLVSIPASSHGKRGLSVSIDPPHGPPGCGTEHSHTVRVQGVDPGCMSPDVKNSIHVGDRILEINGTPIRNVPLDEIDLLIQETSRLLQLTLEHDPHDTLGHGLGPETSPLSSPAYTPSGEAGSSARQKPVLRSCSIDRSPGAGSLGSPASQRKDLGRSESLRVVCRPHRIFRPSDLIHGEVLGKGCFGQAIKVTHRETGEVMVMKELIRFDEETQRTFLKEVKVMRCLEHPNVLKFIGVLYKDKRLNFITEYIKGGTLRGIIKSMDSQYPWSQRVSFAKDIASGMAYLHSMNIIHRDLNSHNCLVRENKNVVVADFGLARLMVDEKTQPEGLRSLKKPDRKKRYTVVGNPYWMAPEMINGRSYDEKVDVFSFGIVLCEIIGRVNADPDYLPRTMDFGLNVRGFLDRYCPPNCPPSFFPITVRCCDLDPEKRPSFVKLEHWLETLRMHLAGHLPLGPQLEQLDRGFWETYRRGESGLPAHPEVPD
Chain of UniProt O15197 (whole entry, looked up): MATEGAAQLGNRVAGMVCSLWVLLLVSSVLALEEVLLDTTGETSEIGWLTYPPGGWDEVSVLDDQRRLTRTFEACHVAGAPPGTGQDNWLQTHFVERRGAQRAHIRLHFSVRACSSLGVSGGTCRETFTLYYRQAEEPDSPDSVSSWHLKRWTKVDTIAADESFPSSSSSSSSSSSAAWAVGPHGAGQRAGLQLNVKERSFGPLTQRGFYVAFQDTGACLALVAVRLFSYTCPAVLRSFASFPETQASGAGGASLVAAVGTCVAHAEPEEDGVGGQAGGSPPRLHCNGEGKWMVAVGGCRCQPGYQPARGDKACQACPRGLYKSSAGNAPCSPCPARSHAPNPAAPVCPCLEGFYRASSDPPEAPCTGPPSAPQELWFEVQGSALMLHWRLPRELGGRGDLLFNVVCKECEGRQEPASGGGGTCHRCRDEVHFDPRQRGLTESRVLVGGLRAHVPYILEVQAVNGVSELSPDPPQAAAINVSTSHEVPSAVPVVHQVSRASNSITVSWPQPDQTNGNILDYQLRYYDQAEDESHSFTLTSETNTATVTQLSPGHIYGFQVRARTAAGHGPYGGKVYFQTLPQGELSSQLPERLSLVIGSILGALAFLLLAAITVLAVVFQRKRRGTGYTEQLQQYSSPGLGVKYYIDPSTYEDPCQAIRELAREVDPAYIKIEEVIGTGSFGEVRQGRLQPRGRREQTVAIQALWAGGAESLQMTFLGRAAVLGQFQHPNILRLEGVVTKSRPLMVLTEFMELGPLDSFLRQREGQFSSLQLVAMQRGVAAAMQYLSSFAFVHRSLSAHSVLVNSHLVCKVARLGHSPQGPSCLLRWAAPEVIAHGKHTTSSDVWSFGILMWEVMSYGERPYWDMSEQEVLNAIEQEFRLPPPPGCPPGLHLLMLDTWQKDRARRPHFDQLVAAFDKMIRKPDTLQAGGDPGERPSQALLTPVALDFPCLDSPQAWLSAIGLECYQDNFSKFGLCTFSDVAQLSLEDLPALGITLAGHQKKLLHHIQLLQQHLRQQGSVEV
Chain of UniProt P15056 (whole entry, looked up): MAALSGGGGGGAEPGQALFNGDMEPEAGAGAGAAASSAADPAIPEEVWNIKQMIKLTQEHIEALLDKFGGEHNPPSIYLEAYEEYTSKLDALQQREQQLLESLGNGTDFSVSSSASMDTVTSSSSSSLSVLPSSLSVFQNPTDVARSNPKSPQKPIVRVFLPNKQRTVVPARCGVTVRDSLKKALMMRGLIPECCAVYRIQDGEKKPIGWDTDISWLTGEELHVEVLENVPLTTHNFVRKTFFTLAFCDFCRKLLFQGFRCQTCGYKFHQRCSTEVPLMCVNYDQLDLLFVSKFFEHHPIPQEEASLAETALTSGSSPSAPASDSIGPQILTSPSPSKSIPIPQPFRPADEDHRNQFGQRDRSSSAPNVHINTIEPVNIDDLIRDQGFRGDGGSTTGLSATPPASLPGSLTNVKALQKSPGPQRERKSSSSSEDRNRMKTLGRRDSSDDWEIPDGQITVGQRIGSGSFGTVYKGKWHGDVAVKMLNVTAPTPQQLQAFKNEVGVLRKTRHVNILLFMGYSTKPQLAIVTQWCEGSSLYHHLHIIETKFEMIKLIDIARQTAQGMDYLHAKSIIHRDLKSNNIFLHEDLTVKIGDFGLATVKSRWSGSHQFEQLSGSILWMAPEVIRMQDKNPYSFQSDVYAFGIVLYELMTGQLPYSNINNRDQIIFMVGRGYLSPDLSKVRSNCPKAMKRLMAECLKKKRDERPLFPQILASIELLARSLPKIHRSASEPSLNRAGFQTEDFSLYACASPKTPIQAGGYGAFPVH
Chain of UniProt O75582 (whole entry, looked up): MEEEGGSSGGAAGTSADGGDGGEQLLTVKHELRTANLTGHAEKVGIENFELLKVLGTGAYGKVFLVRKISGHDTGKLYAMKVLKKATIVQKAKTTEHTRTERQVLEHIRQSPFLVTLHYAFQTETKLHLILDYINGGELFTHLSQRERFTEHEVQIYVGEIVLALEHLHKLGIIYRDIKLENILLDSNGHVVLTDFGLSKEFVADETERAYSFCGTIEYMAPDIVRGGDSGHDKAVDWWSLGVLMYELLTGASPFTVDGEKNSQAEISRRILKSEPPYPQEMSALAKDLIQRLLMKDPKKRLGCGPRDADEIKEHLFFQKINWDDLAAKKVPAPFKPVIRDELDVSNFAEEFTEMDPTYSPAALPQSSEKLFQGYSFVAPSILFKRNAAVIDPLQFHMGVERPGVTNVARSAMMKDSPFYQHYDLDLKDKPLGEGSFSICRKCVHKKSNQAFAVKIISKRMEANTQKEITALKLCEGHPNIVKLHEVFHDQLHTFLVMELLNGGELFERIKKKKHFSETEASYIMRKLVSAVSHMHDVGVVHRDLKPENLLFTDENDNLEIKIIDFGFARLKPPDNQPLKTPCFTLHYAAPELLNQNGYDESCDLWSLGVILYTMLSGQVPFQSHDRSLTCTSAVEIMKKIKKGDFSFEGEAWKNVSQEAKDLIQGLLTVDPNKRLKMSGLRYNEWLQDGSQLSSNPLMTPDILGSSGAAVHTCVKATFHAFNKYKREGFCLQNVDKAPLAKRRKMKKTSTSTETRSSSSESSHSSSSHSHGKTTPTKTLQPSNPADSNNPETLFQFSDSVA

Set 1 — organism: Sarcocystis neurona; effect on: parasite growth; concentration: 10 µM; time: 96 h; notes: second screen; baseline: untreated
`Nc1ncnc2c1ncn2[C@@H]1O[C@H](CO)[C@@H](O)[C@@H]1O`: “log2 fold change” 0.27.
`OC(c1cc(C(F)(F)F)nc2c(C(F)(F)F)cccc12)C1CCCCN1` (centres unmarked): “log2 fold change” -0.0129.
`CCCNC(C)C(=O)Nc1ccccc1C` (centres unmarked): “log2 fold change” 0.15.
For `CC(C(=O)O)c1cccc(C(=O)c2ccccc2)c1` (centres unmarked), “log2 fold change” read 0.46.
For `CN1CCC(=C2c3ccccc3C=Cc3ccccc32)CC1`, “log2 fold change” read -0.0465.
For `CN1CCC(=C2c3ccccc3CC(=O)c3sccc32)CC1`, “log2 fold change” read 0.51.

Set 2 — species: mouse, EL4 tumour-bearing; matrix: EL4 tumour; dose: dose not given; baseline: vehicle
Compound: CC(=O)N[C@@H](Cc1c[nH]c2ccccc12)C(=O)N[C@@H](CCC(=O)C=[N+]=[N-])C(=O)OC(C)C
It gave -0.0245 for “log2 fold change” (measured: N-acetylarginine).
measured: tricarballylate — “log2 fold change”: 0.943.
For measured: ribitol: “log2 fold change” read -0.255.
measured: stachydrine — “log2 fold change”: -0.204.
For measured: N1-Methyl-4-pyridone-3-carboxamide: “log2 fold change” read -0.474.
It gave -0.845 for “log2 fold change” (measured: 2'-O-methylcytidine).
measured: N-acetylasparagine — “log2 fold change”: 0.0556.
It gave 1.07 for “log2 fold change” (measured: ADP).

Set 3 — effect on: cell-free assay; method: competition with immobilised ligand; concentration: 1 µM
SMILES: CNC(=O)Nc1ccc2c(c1)CC[C@@]21OC(=O)N(CC(=O)N(Cc2ccc(F)cc2)[C@@H](C)C(F)(F)F)C1=O
It gave 63% for remaining binding (Ribosomal protein S6 kinase alpha-5, C-terminal kinase domain (RPS6KA5, Homo sapiens, UniProt O75582)).
For Ephrin type-B receptor 6 (EPHB6, Homo sapiens, UniProt O15197): remaining binding read 96%.
It gave 91% for remaining binding (LIM domain kinase 1 (LIMK1, Homo sapiens, UniProt P53667)).
Protein-tyrosine kinase 6 (PTK6, Homo sapiens, UniProt Q13882) — remaining binding: 87%.
Serine/threonine-protein kinase B-raf (BRAF, Homo sapiens, UniProt P15056) — remaining binding: 93%.
Casein kinase I isoform gamma-2 (CSNK1G2, Homo sapiens, UniProt P78368) — remaining binding: 87%.

Set 4 — effect on: enzyme activity; action: inhibitor; concentration: 0.5 µM; baseline: control
Target: Aurora kinase C (AURKC, Homo sapiens, UniProt Q9UQB9)
Construct (Q9UQB9 1-309): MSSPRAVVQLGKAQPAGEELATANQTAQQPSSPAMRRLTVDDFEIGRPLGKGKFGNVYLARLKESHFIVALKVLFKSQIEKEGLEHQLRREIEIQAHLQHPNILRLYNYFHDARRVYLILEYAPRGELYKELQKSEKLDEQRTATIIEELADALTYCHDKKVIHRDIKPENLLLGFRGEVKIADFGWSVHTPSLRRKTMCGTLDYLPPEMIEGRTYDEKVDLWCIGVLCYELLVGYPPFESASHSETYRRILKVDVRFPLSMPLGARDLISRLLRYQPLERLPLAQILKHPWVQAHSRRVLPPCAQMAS
With `N#CC(C#N)=C(N)/C(C#N)=C/c1ccc(O)cc1` the remaining activity was 101%.
The remaining activity of `COc1cc2ncnc(Nc3ccc(Oc4ccccc4)cc3)c2cc1OC` is reported as 93.9%.
For `COc1cc2nccc(Oc3ccc(NC(=S)NC(=O)c4ccccc4C)cc3)c2cc1OC`, the remaining activity was 30.2%.
With `Cn1sc(=O)n(Cc2ccccc2)c1=O` the remaining activity was 98.8%.
With `NCCNc1ncc(C(N)=O)c(Nc2cccc(C(F)(F)F)c2)n1` the remaining activity was 82.2%.
`Nc1[nH]nc2nc3ccccc3nc12` gave a remaining activity of 90.8%.
`Cc1cccc(-c2[nH]c(C(C)(C)C)nc2-c2ccc3c(c2)OCO3)n1` has a remaining activity of 91.4%.
`O=C(Nc1cccc(Nc2cc(Nc3cccc(C(F)(F)F)c3)ncn2)c1)C1CC1` has a remaining activity of 104%.
`CC(C)[C@H](CO)Nc1nc(Nc2cc(N)cc(Cl)c2)c2ncn(C(C)C)c2n1` has a remaining activity of 91.9%.
With `COc1ccc(OC)c2c(=S)c3ccccc3[nH]c12` the remaining activity was 88.2%.
The remaining activity of `O=C(CCCc1ccc(-c2ccccc2F)cc1)Nc1ccc(O)cc1` is reported as 95.4%.
With `Nc1ncnc2n[nH]c(Nc3ccc(F)cc3)c12` the remaining activity was 96%.
`COc1ccc(C(=O)Nc2sc3c(c2C(N)=O)CCCC3)cc1OC` has a remaining activity of 97.2%.
For `CCOC(=O)c1c(C)[nH]c(/C=C2\C(=O)Nc3ccccc32)c1C`, the remaining activity was 89.1%.
With `O=C1NC(=O)C(c2cn(CCCO)c3ncccc23)=C1c1cnccn1` the remaining activity was 113%.

Repeated from above (set 4):
For `COc1cc2nccc(Oc3ccc(NC(=S)NC(=O)c4ccccc4C)cc3)c2cc1OC`, the remaining activity was 30.2%.
With `Cn1sc(=O)n(Cc2ccccc2)c1=O` the remaining activity was 98.8%.
With `NCCNc1ncc(C(N)=O)c(Nc2cccc(C(F)(F)F)c2)n1` the remaining activity was 82.2%.
`Nc1[nH]nc2nc3ccccc3nc12` gave a remaining activity of 90.8%.
`Cc1cccc(-c2[nH]c(C(C)(C)C)nc2-c2ccc3c(c2)OCO3)n1` has a remaining activity of 91.4%.
